Measured values gathered from unrelated publications.
Numbers after ± are the reported error.
UniProt O60656, sequence (whole entry, looked up): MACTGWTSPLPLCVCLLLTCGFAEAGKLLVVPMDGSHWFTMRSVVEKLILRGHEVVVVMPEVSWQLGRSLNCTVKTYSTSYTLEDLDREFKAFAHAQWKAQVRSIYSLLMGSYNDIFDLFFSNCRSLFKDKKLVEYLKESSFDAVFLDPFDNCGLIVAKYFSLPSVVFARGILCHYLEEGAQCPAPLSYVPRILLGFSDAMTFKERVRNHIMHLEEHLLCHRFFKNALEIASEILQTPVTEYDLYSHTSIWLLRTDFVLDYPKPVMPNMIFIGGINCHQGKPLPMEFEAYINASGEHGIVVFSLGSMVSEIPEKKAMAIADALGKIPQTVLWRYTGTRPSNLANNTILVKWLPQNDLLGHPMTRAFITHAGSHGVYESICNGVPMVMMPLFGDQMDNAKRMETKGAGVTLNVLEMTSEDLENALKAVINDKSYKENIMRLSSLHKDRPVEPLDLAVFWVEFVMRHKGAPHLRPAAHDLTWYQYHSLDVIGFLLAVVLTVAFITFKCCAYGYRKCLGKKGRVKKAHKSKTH

CCN(CC)c1ccc(C2Nc3ccc(-c4ccccc4)cc3NC3=C2C(=O)CC(C)(C)C3)cc1 (stereo not drawn)
EC50 (H4; cytoprotection; with: thapsigargin 7.5 µM): 9600 ± 1060 nM

insulin icodec
EC50 (HMEC; DNA synthesis, agonist, 3H-thymidine incorporation; HSA 0%): 1880 nM

Cc1ccc(C)c(CNC(=O)CNC(=O)c2cccc(Cl)c2C)c1
EC50 (INS1; cell viability, protective, CellTiter-Glo; 72 h, with: tunicamycin 0.15 µg/mL): 13000 ± 1000 nM

neurotensin
EC50 (BON; EGFR Tyr1068 phosphorylation, western blot): 0.44 ± 0.08 nM

O=C(N[C@@H]1CCCc2c1[nH]c1ccc(Cl)cc21)c1ccccn1
EC50 (Vero; cell growth, MTS; 72 h): 20 ± 5 nM

Nc1ncnc2[nH]ncc12
EC50 (KM12; cell viability): 1000 nM

CC1(C)CC(=O)C2=C(C1)Nc1cc(C(=O)c3ccccc3)ccc1NC2c1ccc(N2CCCC2)cc1 (stereo not drawn)
EC50 (H4; cytoprotection; with: thapsigargin 7.5 µM): 19000 ± 1280 nM

Cc1cc(NC(=O)c2cccc(NC(=O)/C=C/CN(C)C)c2)ccc1Nc1nccc(-c2cccnc2)n1
EC50 (SH-SY5Y MKK7 inducible; c-Jun Ser73 phosphorylation, inhibitor, western blot, item: phospho-c-Jun Ser73; 6 h, with: doxycycline): 760 ± 120 nM

C=C1CC[C@H](O)C/C1=C/C=C1\CCC[C@]2(C)[C@@H](C(=O)CO)CC[C@@H]12
EC50 (SK-MEL-188 melanoma, pigmented; cell growth, inhibitor, MTT; 48 h): 2.5 nM

UGT1A9 (Homo sapiens, UniProt O60656)
Vmax/Km (O=C(c1ccccc1)c1ccc(O)cc1; steady-state kinetics; pH 7.4, 37 °C): 68 µL/min/mg

CC1(C)CC(=O)C2=C(C1)Nc1cc(Cl)ccc1NC2c1ccc(N2CCCC2)cc1 (stereo not drawn)
EC50 (H4; cytoprotection; with: thapsigargin 7.5 µM): 20600 ± 660 nM

C#Cc1cccc(Nc2ncnc3cc(OCCOC)c(OCCOC)cc23)c1
EC50 (mouse tumour organoids; cell viability, CellTiter-Glo; 72 h): 5000 nM

Fc1ccc(CNc2ncnc3ccc(F)cc23)cc1
EC50 (human PBMC; T cell expansion, resazurin; 7 days, with: concanavalin A 2 µg/mL): > 25000 nM

CC1(C)CC(=O)C2=C(C1)Nc1cc(C(=O)c3ccccc3)ccc1NC2c1ccc(N2CCOCC2)cc1 (stereo not drawn)
EC50 (H4; cytoprotection; with: thapsigargin 7.5 µM): 18900 ± 1300 nM

insulin human
EC50 (HMEC; DNA synthesis, agonist, 3H-thymidine incorporation; HSA 0%): 3.7 nM

CC1(C)CC(=O)C2=C(C1)Nc1cc(C(F)(F)F)ccc1NC2c1ccc(N2CCCC2)cc1 (stereo not drawn)
EC50 (H4; cytoprotection; with: thapsigargin 7.5 µM): < 20000 nM

CC(C)C[C@H](NC(=O)[C@H](Cc1ccccc1)NC(=O)c1cnccn1)B(O)O
EC50 (RPMI-8226; cytotoxicity, WST-1; 24 h): ~2.5 nM

CCC#CC[C@H](C)[C@H](O)/C=C/[C@H]1CC(F)(F)C(=O)N1CCCCCCC(=O)O
EC50 (bone marrow cells, old female rats; alkaline phosphatase activity, activator; 9 days, single treatment at plating): 1.61 ± 0.36 nM

A few entries again:
neurotensin
EC50 (BON; EGFR Tyr1068 phosphorylation, western blot): 0.44 ± 0.08 nM

O=C(N[C@@H]1CCCc2c1[nH]c1ccc(Cl)cc21)c1ccccn1
EC50 (Vero; cell growth, MTS; 72 h): 20 ± 5 nM

Nc1ncnc2[nH]ncc12
EC50 (KM12; cell viability): 1000 nM
